Assay results collected from several papers.
Every numbered part comes from another study and shows a few of its results, in no order. Changes are numbered by the printed parent chain.

Series 1
Target: Transcription factor SOX-2, HMG box (Sox2, Mus musculus, UniProt P48432, residues 41-119)
Chain of UniProt P48432 (41-119, looked up): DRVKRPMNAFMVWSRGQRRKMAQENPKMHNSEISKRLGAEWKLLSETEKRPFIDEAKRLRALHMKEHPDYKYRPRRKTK
Technique: Spec-seq
Form: double-stranded DNA, one strand shown
Medium: in vitro
Tested at: not given
Setting: whole probe, mean of replicates
Reference: not given
Reading: lower = stronger binding
Constant ends, left off below: GAGTCGTCTCGTCAGCAC … CCGTAGAGCACTCAGGTC
For `GGCCGTT`, “relative binding energy” read 1.19 ln ratio.
For `TATTGTT`, “relative binding energy” read -2.68 ln ratio.
Under “relative binding energy”, `CATCGAA` is recorded as 0.458 ln ratio.
Under “relative binding energy”, `CTGTGTT` is recorded as -0.373 ln ratio.
Under “relative binding energy”, `TAGAGTT` is recorded as 0.835 ln ratio.
`CATACTC`: “relative binding energy” 0.14 ln ratio.
`CACGGTT`: “relative binding energy” 0.86 ln ratio.
Under “relative binding energy”, `CATGACG` is recorded as 0.127 ln ratio.

Series 2
Variant: Q10F
Target: ABI1, truncated, D143A, DHFR fusion (Arabidopsis thaliana)
Technique: DHFR PCA, deep sequencing
Medium: yeast
Setting: methotrexate growth selection, single substitutions
Reference: wild-type fitted maximum
Reading: higher = stronger binding
Parent: PYL1, truncated, DHFR fusion (Arabidopsis thaliana); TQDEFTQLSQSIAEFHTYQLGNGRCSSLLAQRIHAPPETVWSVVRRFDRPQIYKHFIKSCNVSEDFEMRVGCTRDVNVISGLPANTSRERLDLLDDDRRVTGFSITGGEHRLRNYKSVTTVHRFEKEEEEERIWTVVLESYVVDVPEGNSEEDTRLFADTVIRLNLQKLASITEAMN; partner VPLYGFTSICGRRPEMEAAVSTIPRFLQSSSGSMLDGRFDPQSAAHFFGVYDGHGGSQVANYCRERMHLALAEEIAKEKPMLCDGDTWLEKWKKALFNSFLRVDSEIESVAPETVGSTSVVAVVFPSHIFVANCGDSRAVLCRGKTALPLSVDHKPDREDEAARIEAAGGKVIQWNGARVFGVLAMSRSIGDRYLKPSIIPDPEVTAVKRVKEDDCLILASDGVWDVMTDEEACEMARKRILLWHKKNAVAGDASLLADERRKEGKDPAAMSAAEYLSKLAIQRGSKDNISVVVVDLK
It gave 9.8% for “relative binding score” (together with: (+)-ABA 1.4 µM).
It gave 0.303% for “relative binding score” (together with: (+)-ABA 0.0091 µM).
The “relative binding score” was -6.67% (together with: (+)-ABA 0.032 µM).
together with: (+)-ABA 0.11 µM — “relative binding score”: 2.38%.
The “relative binding score” was -0.204% (together with: (+)-ABA 0.39 µM).
For together with: (+)-ABA 2500 µM: “relative binding score” read 95.1%.

Series 3
Target: Transcriptional repressor CTCF (CTCF, Homo sapiens, UniProt P49711, residues 1-727, full length assumed)
Chain of UniProt P49711 (whole entry, looked up): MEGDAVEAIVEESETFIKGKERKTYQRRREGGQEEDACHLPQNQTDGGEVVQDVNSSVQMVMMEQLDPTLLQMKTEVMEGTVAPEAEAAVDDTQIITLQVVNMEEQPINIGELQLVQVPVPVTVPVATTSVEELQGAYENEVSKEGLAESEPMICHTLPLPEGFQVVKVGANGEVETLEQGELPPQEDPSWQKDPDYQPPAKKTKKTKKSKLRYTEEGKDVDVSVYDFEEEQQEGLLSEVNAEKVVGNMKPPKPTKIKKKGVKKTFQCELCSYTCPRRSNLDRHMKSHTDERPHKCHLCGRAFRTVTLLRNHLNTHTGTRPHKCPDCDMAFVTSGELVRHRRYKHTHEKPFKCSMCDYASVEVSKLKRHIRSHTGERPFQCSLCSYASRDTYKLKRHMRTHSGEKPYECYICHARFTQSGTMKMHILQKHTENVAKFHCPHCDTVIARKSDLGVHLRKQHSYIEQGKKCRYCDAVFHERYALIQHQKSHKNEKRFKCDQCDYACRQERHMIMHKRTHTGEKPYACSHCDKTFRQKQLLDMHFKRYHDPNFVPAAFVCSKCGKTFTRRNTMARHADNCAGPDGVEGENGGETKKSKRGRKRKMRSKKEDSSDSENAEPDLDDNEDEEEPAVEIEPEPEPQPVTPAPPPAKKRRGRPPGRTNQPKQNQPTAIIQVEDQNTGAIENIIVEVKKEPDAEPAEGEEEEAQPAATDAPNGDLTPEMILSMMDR
Technique: protein-binding microarray
Form: double-stranded DNA, one strand shown
Medium: in vitro
Tested at: not given
Setting: k-mer, scored over probes, only values ≥0.25
Reading: higher = stronger binding
For `TGTGGTAA`, the E-score was 0.261.
For `ATACTCAT`, the E-score was 0.303.
The E-score of `ATGTAATC` is reported as 0.251.
The E-score of `GTGAATTA` is reported as 0.304.
`CCGACAGG` gave an E-score of 0.306.
The E-score of `TACATATA` is reported as 0.35.
For `GTAAAGTA`, the E-score was 0.259.
The E-score of `TAGCGCGA` is reported as 0.272.

Mixed results
`YMMDDLEL`: binding “inactive” (HLA class I histocompatibility antigen, C alpha chain, allele C*04:01 (Homo sapiens, UniProt P10321); peptide-MHC binding; peptide; concentration not given).
